Experimental data of several laboratories.
Parts stem from different laboratories: compare values within a part only. Positions count from the first letter of the parent shown.
Chain of UniProt Q8IU85 (whole entry, looked up): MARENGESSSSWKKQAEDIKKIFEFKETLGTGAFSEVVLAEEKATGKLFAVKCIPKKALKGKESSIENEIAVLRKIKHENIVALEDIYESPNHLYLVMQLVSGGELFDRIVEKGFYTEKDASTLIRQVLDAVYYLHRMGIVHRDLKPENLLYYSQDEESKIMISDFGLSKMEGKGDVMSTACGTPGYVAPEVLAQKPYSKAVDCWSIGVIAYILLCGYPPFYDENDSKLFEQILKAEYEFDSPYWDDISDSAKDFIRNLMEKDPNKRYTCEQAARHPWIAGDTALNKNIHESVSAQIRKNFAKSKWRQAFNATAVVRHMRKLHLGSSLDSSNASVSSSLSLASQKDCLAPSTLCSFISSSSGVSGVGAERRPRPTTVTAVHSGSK

Sample 1 — target: vanadate, free oxyanion; method: microfluidic competitive inhibition; matrix: in vitro, cell-free expressed; concentration: not given; direction: lower = stronger binding
Setting: derived from inhibition constants, unchanged parent 676 nM
Starting sequence: PafA, mature enzyme, eGFP fusion (Elizabethkingia meningoseptica, UniProt Q9KJX5); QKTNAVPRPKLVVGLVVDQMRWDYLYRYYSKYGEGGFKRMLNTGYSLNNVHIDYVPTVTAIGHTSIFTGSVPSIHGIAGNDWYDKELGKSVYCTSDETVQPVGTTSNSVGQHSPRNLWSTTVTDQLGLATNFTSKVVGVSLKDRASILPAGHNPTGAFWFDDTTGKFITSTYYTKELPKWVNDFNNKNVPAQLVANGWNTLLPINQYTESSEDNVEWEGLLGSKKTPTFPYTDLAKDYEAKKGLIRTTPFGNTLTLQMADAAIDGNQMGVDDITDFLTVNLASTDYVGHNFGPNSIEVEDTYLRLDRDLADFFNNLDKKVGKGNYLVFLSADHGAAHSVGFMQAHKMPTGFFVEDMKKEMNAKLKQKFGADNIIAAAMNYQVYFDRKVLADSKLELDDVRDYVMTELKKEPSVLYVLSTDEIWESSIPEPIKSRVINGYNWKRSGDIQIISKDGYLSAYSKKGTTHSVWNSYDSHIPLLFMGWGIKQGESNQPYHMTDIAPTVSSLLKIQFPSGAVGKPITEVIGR
For `N470V`, “oxyanion analog dissociation constant” read 685 nM.
`K175V`: “oxyanion analog dissociation constant” 856 nM.
Under “oxyanion analog dissociation constant”, `W469G` is recorded as 542 nM.
`W22V`: “oxyanion analog dissociation constant” 780 nM.
For `Q267G`, “oxyanion analog dissociation constant” read 872 nM.
`D398V` — result for “oxyanion analog dissociation constant”: 1.1 µM.
For `N185V`, “oxyanion analog dissociation constant” read 650 nM.
`A145G`: “oxyanion analog dissociation constant” 3.81 µM.

Sample 2 — target: CCNA1, cyclin fold, Cln2 fusion (human); method: yeast growth competition, sequencing; matrix: yeast; setting: weak parent motif; reference: not given; direction: higher = stronger binding
Starting sequence: viral docking peptide; CKVKRKLFGSENI; partner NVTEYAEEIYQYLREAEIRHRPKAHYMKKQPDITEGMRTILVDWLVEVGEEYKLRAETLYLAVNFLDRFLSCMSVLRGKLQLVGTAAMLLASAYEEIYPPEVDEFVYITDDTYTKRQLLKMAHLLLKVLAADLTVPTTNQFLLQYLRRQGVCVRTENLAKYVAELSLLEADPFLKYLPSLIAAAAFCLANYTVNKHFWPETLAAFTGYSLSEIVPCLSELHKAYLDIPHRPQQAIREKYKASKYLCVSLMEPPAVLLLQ
For `C1A`, “normalised enrichment score” read 0.547.
Under “normalised enrichment score”, `S10A` is recorded as 0.574.
For `L7A`, “normalised enrichment score” read 0.352.
`R5A L7A`: “normalised enrichment score” 0.285.
For `K6A`, “normalised enrichment score” read 0.43.
`N12A` — result for “normalised enrichment score”: 0.239.
For `E11A`, “normalised enrichment score” read 0.473.
`G9A`: “normalised enrichment score” 0.29.

Single results of other studies
For O=C(NCc1ncc(C(F)(F)F)cc1Cl)c1ccc2c(c1)C1(CCS(=O)(=O)CC1)[C@H](C1CC1)N2S(=O)(=O)c1ccc(F)cc1, the inhibition was -5.4% (Sodium-dependent serotonin transporter (SLC6A4, Homo sapiens, UniProt P31645); cell-free assay; 10 µM).
For COc1ccc2c(c1)/C(=C/c1cnc[nH]1)C(=O)N2, the remaining activity was 98.3% (Calcium/calmodulin-dependent protein kinase type 1D (CAMK1D, Homo sapiens, UniProt Q8IU85); enzyme activity, inhibitor; 0.5 µM; reference: control).
Nc1cnc(N2CCc3cc(S(=O)(=O)Nc4c(F)cc(Cl)cc4F)cc(N4CCCC4=O)c32)nc1 has a remaining binding of 97% (Calcium-dependent protein kinase 1 (CDPK1, Plasmodium falciparum, UniProt P62344); cell-free assay, competition with immobilised ligand; 1 µM).

A few entries again (sample 1):
Under “oxyanion analog dissociation constant”, `W469G` is recorded as 542 nM.
`W22V`: “oxyanion analog dissociation constant” 780 nM.
